# Assay results of several laboratories.
# Every numbered part comes from another study and shows a few of its results, in no order. Substitutions count along the parent as printed.

# Study 1
# Target: Probable WRKY transcription factor 11, DNA-binding domain (WRKY11, Arabidopsis thaliana, UniProt Q9SV15, residues 228-325)
# Method: DNA-protein interaction ELISA
# Form: double-stranded DNA, one strand shown
# Medium: in vitro, bacterial lysate
# Concentration: not given
# Setting: whole dsDNA probe, crude lysate protein
# Reference: highest signal in screen
# Reading: higher = stronger binding
# Construct (chain): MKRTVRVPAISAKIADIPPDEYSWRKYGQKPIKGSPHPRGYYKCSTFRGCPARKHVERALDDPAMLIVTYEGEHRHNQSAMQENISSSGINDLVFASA
Strand,relative absorbance
AAAAAATATCTGATCCAATTTAGGTCAAAA,43.5 % of maximum
AAAAAACTAACCGTCGCAGGCGTGTGAAAA,17.9 % of maximum
AAAAAAGCATATCTTCAGAACTTGCCAAAA,16.4 % of maximum
AAAAAACCGACCTGCACGTCGCTGCTAAAA,12.4 % of maximum
AAAAAACGCAACTCCGGATGTGGGGTAAAA,14.4 % of maximum
AAAAAATCCTTTTCTCTTTCTGTTTCAAAA,14.1 % of maximum
AAAAAAGTCTAAGGACTTATAGCTGTAAAA,59.9 % of maximum
AAAAAACCGATCATCACATATCACTGAAAA,13.8 % of maximum
AAAAAATTCAGAGCTTCGAGGTTCCGAAAA,17.6 % of maximum
AAAAAAAAAAAAAAAAAAAAAAAAAAAAAA,14 % of maximum
AAAAAAAGTATCAAAGCCTAGGGCTGAAAA,13.3 % of maximum
AAAAAACACGCCATTGACACTGGTAAAAAA,43.5 % of maximum
AAAAAATAAATCGCGGCTACTGCTTCAAAA,13 % of maximum
AAAAAAGGTTGGTACGTCGAGTTCTTAAAA,13 % of maximum
AAAAAACCGCTTACATTGCGTTGTCGAAAA,16.4 % of maximum
AAAAAAATTTTTAGTTTTAATTTTGGAAAA,15.6 % of maximum
AAAAAAATCCCACTTCATTCTAAAAA,15.8 % of maximum
AAAAAAACGGTGTCATAGTATTAGTGAAAA,14.1 % of maximum
AAAAAAATCAGCCTGACTCTGGGCGTAAAA,17.6 % of maximum
AAAAAAACTCAACTAGTGAACCACCAAAA,16.7 % of maximum
AAAAAATGCCATTGTACCTGTGTTCGAAAA,10.7 % of maximum
AAAAAACCCATCCTTCGTTCCATCGTAAAA,19 % of maximum
AAAAAAGGGCGAGCGCTGGATCCACAAAA,12.4 % of maximum
AAAAAATTTGCTCTTTTGGTTTTCACAAAA,17 % of maximum
AAAAAAGGTGAGGAAGTTGGGTATGGAAAA,17.3 % of maximum

# Study 2
# Target: NFIL3, bZIP domain (human)
# Method: DHFR protein complementation
# Medium: yeast
# Setting: single substitutions, most at no-binding floor
# Reference: wild-type JUN-FOS pair
# Reading: higher = stronger binding
# Parent: JUN, bZIP domain (human); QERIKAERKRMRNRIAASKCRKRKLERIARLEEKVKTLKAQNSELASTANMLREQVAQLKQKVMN; partner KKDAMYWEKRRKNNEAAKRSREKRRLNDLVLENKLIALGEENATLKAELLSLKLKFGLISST
Substitution,binding fitness [natural log]
E44T,-1.42
E54A,-1.53
Q55T,-1.52
M51K,-1.57
R30W,-1.41
T37Q,-1.02
A46R,-1.39
L38D,-1.54
I28Y,-1.49
A46L,-1.52
E44W,-1.46
E44I,-1.59
K34T,-1.48
I28C,-1.52
A40C,-1.3
A49E,-1.32
R53Q,-1.53
L45T,-1.45
R30F,-1.26
R30E,-1.3
R53I,-1.41
R30V,-1.44
L31G,-1.51
Q55L,-1.54
A46G,-1.47

# Study 3
# Target: Prothrombin, mature alpha-thrombin (F2, Homo sapiens, UniProt P00734)
# Method: aptamer microarray, sandwich
# Form: DNA with 2'F-ANA
# Medium: in vitro
# Concentration: 200 nM
# Setting: whole 15-mer aptamer, many near background
# Added: Cy3 exosite-II aptamer, 400 nM
# Reading: higher = stronger binding
# Strand: GGTTGGTGTGGTTGG
Modification,mean fluorescence intensity
2'F-ANA at 1 4 5 6 8 9,64.2 a.u.
2'F-ANA at 3 9 10 14,466 a.u.
2'F-ANA at 1 4 9 12 14,58.2 a.u.
2'F-ANA at 1 4 5 6 7 11 13 14 15,57 a.u.
2'F-ANA at 2 5 12 15,175 a.u.
2'F-ANA at 1 7 8 13 15,182 a.u.
2'F-ANA at 2 5 7 8 10 12 13 14,46 a.u.
2'F-ANA at 1 11 12 14 15,73.5 a.u.
2'F-ANA at 1 3 4 7 9 10 12 15,85.1 a.u.
2'F-ANA at 2 6 9 10 14 15,287 a.u.
2'F-ANA at 1 2 3 6 8 9 11 13,161 a.u.
2'F-ANA at 2 5 6 7 8 12,167 a.u.
2'F-ANA at 2 4 6 8 15,335 a.u.
2'F-ANA at 1 2 5 10 11,45.8 a.u.
2'F-ANA at 1 2 3 6 9 10 14 15,54.2 a.u.
2'F-ANA at 3 5 6 8 9 11 12 13 14,60.2 a.u.
2'F-ANA at 2 4 6 8 9 10 12 13,126 a.u.
2'F-ANA at 1 3 4 10 11,130 a.u.
2'F-ANA at 3 4 12 13 14 15,324 a.u.
2'F-ANA at 2 9 10 11,126 a.u.

# Study 4
# Target: ABI1, truncated, D143A, DHFR fusion (Arabidopsis thaliana)
# Method: DHFR PCA, deep sequencing
# Medium: yeast
# Setting: methotrexate growth selection, single substitutions
# Added: (+)-ABA 0.11 µM
# Reference: wild-type fitted maximum
# Reading: higher = stronger binding
# Parent: PYL1, truncated, DHFR fusion (Arabidopsis thaliana); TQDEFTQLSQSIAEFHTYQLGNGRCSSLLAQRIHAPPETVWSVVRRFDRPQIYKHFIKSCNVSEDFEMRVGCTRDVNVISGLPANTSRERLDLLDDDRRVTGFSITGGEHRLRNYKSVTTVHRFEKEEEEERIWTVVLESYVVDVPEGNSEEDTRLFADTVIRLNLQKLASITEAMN
Substitution,relative binding score
K126Y,24.2%
D3E,50.5%
T1S,32.4%
Y141Q,2.09%
S171R,47.1%
V76Q,-7.72%
K116E,-3.24%
V62M,11.9%
T73H,28.7%
S87F,30.2%
N22H,40.9%
R46K,0.31%
E152N,0.957%
S150P,10.6%

# Study 5
# Target: TAR DNA-binding protein 43, full length, His tag (TARDBP, Homo sapiens, UniProt Q13148, residues 1-414)
# Method: RNA Bind-n-Seq
# Form: RNA
# Medium: in vitro
# Concentration: 20 nM
# Setting: 6-mer, flanks averaged, single round
# Added: 150 mM LiCl
# Reference: input library
# Reading: higher = stronger binding
Strand,6-mer enrichment (R)
UAUCAC,0.853
UGUGCU,1.22
UGUGGA,1.32
AGGCCC,1.02
CCAAGC,0.881
UUGUCU,1.04
CUCCGU,0.936
AUUGAG,1.02
AAAUCU,0.867
AGGACC,0.9
UAGGCA,0.907
ACGCAC,0.858
UCCCCG,1.09
CCUCCC,1.16
GUAGGC,1.03
UCAAUG,0.901
ACCGCC,0.94
GUAUAG,1.04

# Study 6
# Target: CCNF, cyclin fold, Cln2 fusion (human)
# Method: yeast growth competition, sequencing
# Medium: yeast
# Setting: weak parent motif
# Reference: not given
# Reading: higher = stronger binding
# Parent: PKN2 docking peptide (human); VSAVQKLDFSDTM
Substitution,normalised enrichment score
T12N,0.515
M13R,0.655
L7C,0.361
D8M,0.601
V1P,1.35
L7P,-0.493
S2L,0.0967
D8S,0.499
D8N,0.469
D8K,0.746
S10N,0.0703
V4N,-0.385
D11Y,0.71
T12R,0.263
K6F,-0.115
M13E,0.0583
A3R,-0.289
D11Q,0.668

# Study 7
# Target: RING finger protein unkempt homolog, zinc fingers 1-6, SBP tag (UNK, Homo sapiens, UniProt Q9C0B0, residues 30-357)
# Sequence of UniProt Q9C0B0 (30-357, looked up): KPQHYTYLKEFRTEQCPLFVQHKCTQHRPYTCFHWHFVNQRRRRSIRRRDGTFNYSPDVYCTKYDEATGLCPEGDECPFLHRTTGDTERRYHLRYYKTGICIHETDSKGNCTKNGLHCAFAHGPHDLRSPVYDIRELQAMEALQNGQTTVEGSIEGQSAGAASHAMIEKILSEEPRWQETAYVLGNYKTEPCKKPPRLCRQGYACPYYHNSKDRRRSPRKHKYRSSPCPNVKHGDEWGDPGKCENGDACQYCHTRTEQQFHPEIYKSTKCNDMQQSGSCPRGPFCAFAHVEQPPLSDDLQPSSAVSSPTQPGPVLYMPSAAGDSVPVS
# Method: RNA Bind-n-Seq
# Form: RNA
# Medium: in vitro
# Concentration: 100 nM
# Setting: RNA with constant flanks, ends assumed
# Reference: input RNA pool
# Reading: higher = stronger binding
Strand,bound/input enrichment [ratio]
GGGAGUUCUACAGUCCGACGAUCGGCCUCCAACAGGCAAAUUCAGGGAGGACCGGUUUCAGGGAAUAUAAAUUUAUUUAAUAUCCGUGGUCUUUAAGUAUAAACUUGAUGUAAUUGGUUUGGGAGGGGGCAGUGAUGAUGACUCAACAGAGGAUUGAGCAUCA,0.823
GGGAGUUCUACAGUCCGACGAUCCUGUUUUGUGAAACAUGUCUACCCAGAAAAGCCGCAUUCUAUAAAUACUAUUAAACAACUCCGCUAUAUUAUUUUUAAGUAUUAAAUUAUAUGUCAAGCAGUUAAAGUGAAUUUCAGAGUCAACAGAGGAUUGAGCAUCA,0.553
GGGAGUUCUACAGUCCGACGAUCAGAGGAUCCGGUUCCAUCCUUUACGUGUUUAAAAAAAAGCAUAAAAACAUUUUAAAAACACCGAAAAAUUCAGCAAACCAUUUUUAAAGCCGAAGAGGGUUUCCGGCCGAAAAACAUAUUCAACAGAGGAUUGAGCAUCA,0.499

# Excerpt of the above (study 2):
Substitution,binding fitness [natural log]
Q55T,-1.52
M51K,-1.57
R30W,-1.41
T37Q,-1.02
A46R,-1.39
L38D,-1.54
I28Y,-1.49
A46L,-1.52
E44W,-1.46
E44I,-1.59
K34T,-1.48
I28C,-1.52
A40C,-1.3
A49E,-1.32
R53Q,-1.53
L45T,-1.45
R30F,-1.26
R30E,-1.3
